Results pooled from the literature.
Numbered parts are unrelated; each lists some results of a single study. Changes are numbered by the printed parent chain.

Sample 1
Target: RNA binding protein fox-1 homolog 2, RRM domain, GST-SBP tag (RBFOX2, Homo sapiens, UniProt O43251-10, residues 100-194)
Method: RNA Bind-n-Seq
Form: RNA
Matrix: in vitro
Concentration: 365 nM
Setting: natural RNA segment, single round, ends assumed
Baseline: no-protein control
Reading: higher = stronger binding
Constant ends, left off below: GGGAGUUCUACAGUCCGACGAUC … UGGAAUUCUCGGGUGCCAA
Construct (chain): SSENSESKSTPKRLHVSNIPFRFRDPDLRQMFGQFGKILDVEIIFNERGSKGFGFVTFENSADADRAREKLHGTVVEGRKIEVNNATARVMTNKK
Strand	RBNS enrichment (R)
ACCAAAAGCAUAAAAAACCACAGCAAAUUUCUUGAUGAAAAUUGAAAAUAAAAGUUUCCUUGUAUUUAGUGCUCUGGUUCAGUGUGGGUGUAGGUGCAGGUGGAUGAGUG	0.858
CUUUGUUCUGAAUAUCAACUAGAGCAAGCAAAUACUGGAGAUUUCUUAGUCAGUUUUUAGGGGACCUCGGGGGUGGGGUAUAUAGGUAAUAUACAGAGCAUUUUGACUUC	1.13
AAUACUGCACACAUAAGAUACAUACUUGUGUGCAGAAAGUAUCUUCCUCCAGGCUUGUAAUACCCUUCACAUGGAAGAUUAAUGAGGGAAAUCUUUAUAUUCUGUAUAAA	0.477
GGAUUCUGAACAGGCGCCAAGCUAACAGGUGGAGAAAUGAGCCAGAACUCCCUGUCUGAAAAGGAUGCCGAGCCUUGUGCUCAGCAGAGGGAAGUUUGGCUAAUGGGCUG	0.314
CGCCCCUCCCCGCCCACUGUGCCUGUUGGCCUAUCAUAGAUCUCUAUGUUCUUGACUUUGUCUCUCCUUUCCGAGUCAAUGGUGGGUUACACUGAUCUUGUUCCACUGAU	0.5
UUUUCACCACGCUCAGGCAAAUACUCUGCAGCUGUUAUUGGAUGGGCCAUUCCGAUCUGCCUUAUGAAAUUCCACAAGAAUGUUAGGGGCACCUAUGGGAUCUCUAGUGG	3.28
AUUAAAUGUUUUAGUAUUUUGAACUGAAAUGGACACACAAACACACACACGCACACACAGACCCACAGCUUUGAAUGAUCAUGUUGUGGCUGAGCAGCCGCUUUUUAGAC	1.67
UGGGGCCCCUGGCCCAGAGUUGCUGUGCCGUGUCCAAGGGCCGUGCCCUUGCCCUUGGAGCUGCCGUGCCUGUGUCCUGAUGGCCCAAAUGUCAGGGUUCUGCUCGGCUU	0.438
GUUUUACACAUGGAAGCAGCUGAUGUAGAGACUUCAUAUAGGCAGCUGCAGUCCUAAAGUCUCAAGCUAGAGGGUGGGGGCCACGGAAGGAAGGCAGCCUUUCAGGUAGC	0.567

Sample 2
Target: CCNB3, cyclin fold, Cln2 fusion (human)
Method: yeast growth competition, sequencing
Matrix: yeast
Setting: weak parent motif
Baseline: not given
Reading: higher = stronger binding
Starting sequence: CDC6 docking peptide (human); TLKGRRLVFDNQL
Change	normalised enrichment score
TSKGRRLVFDNQL [L2S]	-0.398
TLKGRRLVFDQQL [N11Q]	0.127
TIKGRRLVFDNQL [L2I]	0.184
TLKGRRVVFDNQL [L7V]	-0.122
TLKGRRLVFDVQL [N11V]	0.206
TLKGRRLVFDHQL [N11H]	0.213
TLPGRRLVFDNQL [K3P]	0.262
TWKGRRLVFDNQL [L2W]	0.333
TPKGRRLVFDNQL [L2P]	0.0553
TLKGKRLVLDNQL [R5K F9L]	0.36
TLKVRRLVFDNQL [G4V]	0.275
TLKGRRLVFDAQL [N11A]	0.836
TLKTRRLVFDNQL [G4T]	-0.0428
TLWGRRLVFDNQL [K3W]	0.0104

Sample 3
Change: I52H
Target: ABI1, truncated, D143A, DHFR fusion (Arabidopsis thaliana)
Method: DHFR PCA, deep sequencing
Matrix: yeast
Setting: methotrexate growth selection, single substitutions
Baseline: wild-type fitted maximum
Reading: higher = stronger binding
Starting sequence: PYL1, truncated, DHFR fusion (Arabidopsis thaliana); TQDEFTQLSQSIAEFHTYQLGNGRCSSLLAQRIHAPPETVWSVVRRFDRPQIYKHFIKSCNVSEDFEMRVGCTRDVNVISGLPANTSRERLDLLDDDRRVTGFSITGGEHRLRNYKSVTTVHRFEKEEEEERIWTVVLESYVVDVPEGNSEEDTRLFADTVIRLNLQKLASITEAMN; partner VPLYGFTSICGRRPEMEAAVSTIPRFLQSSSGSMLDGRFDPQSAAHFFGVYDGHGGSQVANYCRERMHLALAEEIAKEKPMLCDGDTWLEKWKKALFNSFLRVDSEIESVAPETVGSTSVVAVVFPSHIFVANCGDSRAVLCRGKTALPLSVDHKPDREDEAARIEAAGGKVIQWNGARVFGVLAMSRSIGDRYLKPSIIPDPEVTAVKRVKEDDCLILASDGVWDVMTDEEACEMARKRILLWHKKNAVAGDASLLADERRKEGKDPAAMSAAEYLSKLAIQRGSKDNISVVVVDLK
added	relative binding score [%]
(+)-ABA 0 µM	8.52
(+)-ABA 0.0091 µM	4.88
(+)-ABA 0.032 µM	5.75
(+)-ABA 200 µM	93.7
(+)-ABA 4.8 µM	54.1
(+)-ABA 0.11 µM	4.76

Other studies, line by line
Molecule	target	assay	system	setting	how to read	measurement	result
PhoQ, residues 284 288 289 292 302 303 QWGLFV	PhoP, residues 12 14 15 18 19 LHHSG (Escherichia coli, UniProt P23836)	Sort-seq, item: YFP reporter	E. coli	PhoQ-PhoP variant library, added: 10 µM Mg2+	baseline: high Mg2+ state, higher = stronger signaling	fold induction	5.75

Repeated from above (sample 2):
Change	normalised enrichment score
TPKGRRLVFDNQL [L2P]	0.0553
TLKGKRLVLDNQL [R5K F9L]	0.36
TLKVRRLVFDNQL [G4V]	0.275
TLKGRRLVFDAQL [N11A]	0.836
